{"data": "Measured values pooled from the literature", "note": "A part holds a random share of what one study measured. Substitutions count along the parent as printed."}
{"data": "Sample 1", "target": "CCNB3, cyclin fold, Cln2 fusion (human)", "method": "yeast growth competition, sequencing", "medium": "yeast", "setting": "weak parent motif", "baseline": "not given", "direction": "higher = stronger binding", "starting sequence": "DBF4B docking peptide (human); LGYLYLLLTQSLW"}
{"Substitution": "Q10A", "normalised enrichment score": 0.56}
{"Substitution": "Y5A", "normalised enrichment score": 0.309}
{"Substitution": "G2A", "normalised enrichment score": 0.0677}
{"Substitution": "L7A", "normalised enrichment score": -0.421}
{"Substitution": "L12A", "normalised enrichment score": 0.398}
{"Substitution": "S11A", "normalised enrichment score": 0.312}
{"data": "Sample 2", "target": "Sal-like protein 4, full length isoform A (SALL4, Homo sapiens, UniProt Q9UJQ4, residues 1-1053)", "method": "universal PBM", "form": "double-stranded DNA, one strand shown", "medium": "in vitro", "concentration": "600 nM", "setting": "8-mer, flanks averaged, mean of replicates", "direction": "higher = stronger binding", "chain of UniProt Q9UJQ4 (whole entry, looked up)": "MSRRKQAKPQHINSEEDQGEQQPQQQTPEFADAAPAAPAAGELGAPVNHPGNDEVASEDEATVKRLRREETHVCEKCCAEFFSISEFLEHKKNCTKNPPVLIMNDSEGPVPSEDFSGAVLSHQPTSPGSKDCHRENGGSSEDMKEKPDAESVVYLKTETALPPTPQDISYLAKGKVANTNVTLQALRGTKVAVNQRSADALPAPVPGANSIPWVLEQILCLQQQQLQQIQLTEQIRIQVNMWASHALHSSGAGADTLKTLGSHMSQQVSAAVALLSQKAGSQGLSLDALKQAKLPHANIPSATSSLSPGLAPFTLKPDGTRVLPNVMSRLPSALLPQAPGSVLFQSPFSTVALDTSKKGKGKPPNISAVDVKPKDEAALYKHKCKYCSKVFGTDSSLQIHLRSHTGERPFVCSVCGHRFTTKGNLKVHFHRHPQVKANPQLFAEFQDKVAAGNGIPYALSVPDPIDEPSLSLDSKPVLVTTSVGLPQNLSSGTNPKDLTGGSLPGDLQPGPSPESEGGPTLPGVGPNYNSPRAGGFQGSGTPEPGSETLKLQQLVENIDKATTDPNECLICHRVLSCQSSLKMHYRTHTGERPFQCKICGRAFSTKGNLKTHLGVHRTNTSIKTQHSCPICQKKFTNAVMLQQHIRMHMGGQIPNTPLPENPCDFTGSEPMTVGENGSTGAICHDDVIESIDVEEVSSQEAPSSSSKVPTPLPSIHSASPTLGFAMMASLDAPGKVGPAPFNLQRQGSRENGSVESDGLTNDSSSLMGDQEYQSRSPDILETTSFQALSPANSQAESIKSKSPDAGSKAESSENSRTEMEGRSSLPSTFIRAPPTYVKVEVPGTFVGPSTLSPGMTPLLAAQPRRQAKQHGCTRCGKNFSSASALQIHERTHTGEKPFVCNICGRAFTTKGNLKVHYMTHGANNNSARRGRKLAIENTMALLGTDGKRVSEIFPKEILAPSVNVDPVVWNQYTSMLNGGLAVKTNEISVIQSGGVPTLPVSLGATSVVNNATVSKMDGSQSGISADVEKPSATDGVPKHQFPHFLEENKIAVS"}
{"Oligonucleotide": "ATTTACTA", "E-score": 0.263}
{"Oligonucleotide": "GCCATAGC", "E-score": -0.0253}
{"Oligonucleotide": "ATAACCAC", "E-score": 0.158}
{"Oligonucleotide": "ACCGAGGA", "E-score": -0.182}
{"Oligonucleotide": "CCAGGACG", "E-score": -0.23}
{"Oligonucleotide": "AAGTCAAG", "E-score": -0.0959}
{"Oligonucleotide": "GCCGTACC", "E-score": -0.274}
{"Oligonucleotide": "AGGAATGA", "E-score": 0.129}
{"Oligonucleotide": "AGTACAGC", "E-score": -0.0899}
{"Oligonucleotide": "CCGTATTC", "E-score": 0.0359}
{"Oligonucleotide": "CAATAAAC", "E-score": 0.269}
{"Oligonucleotide": "AACATTGT", "E-score": 0.238}
{"Oligonucleotide": "GATCATGA", "E-score": 0.111}
{"Oligonucleotide": "CAGGTGGA", "E-score": -0.172}
{"data": "Sample 3", "target": "RNA binding protein fox-1 homolog 2, RRM domain, GST-SBP tag (RBFOX2, Homo sapiens, UniProt O43251-10, residues 100-194)", "method": "RNA Bind-n-Seq", "form": "RNA", "medium": "in vitro", "concentration": "365 nM", "setting": "natural RNA segment, single round, ends assumed", "baseline": "no-protein control", "direction": "higher = stronger binding"}
{"Oligonucleotide": "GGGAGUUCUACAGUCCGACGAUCGGGAAUCCAGGCCCAGCAAGAGACAUGCCAAUGGCGACUGUAGGUCCCUCCAUGUGUGCUGACUCCAGACAACCGACCUUCCAGUGUCCCAAAGUUCUUCCAUGUUUUUAUGGAAUUCUCGGGUGCCAA", "RBNS enrichment (R)": 0.702}
{"Oligonucleotide": "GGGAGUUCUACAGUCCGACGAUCCCAGUGAUGGAUAACAGCUCCUAUUCUCAGCUGACCUGACUGAGCCAACCCAUGAACUCUUCACUCCUUGGGGAAGCCACCUCCCAUCACACCCCUGAGCAGAGUUAGGGUGGAAUUCUCGGGUGCCAA", "RBNS enrichment (R)": 0.535}
{"Oligonucleotide": "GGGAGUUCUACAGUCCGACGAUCAUAAAAGUAUUAGAGGCAGCGUUUCUCUGAUACAGAGAGGCCUGUCCACAAGAAGCAUGGGCACCCAGCCAAACUUGAACCUGGAAGGGAGGGUUCCCGGCCUGCAGGUGUGGAAUUCUCGGGUGCCAA", "RBNS enrichment (R)": 1.59}
{"Oligonucleotide": "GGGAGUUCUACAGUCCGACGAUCUUAUUGACACUUACUAAGAAAUGACAUUCUGUUAAAAAAAAUUAGGAAAAAAAUAUGGAAAAAAAAUAUCAGAGAAAAGUGUCAGAGAAAGUUGGAAGCUCAUAUCCCCAUGGAAUUCUCGGGUGCCAA", "RBNS enrichment (R)": 0.74}
{"Oligonucleotide": "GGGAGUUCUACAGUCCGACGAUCGACCAAAGUCCCUCCAAAGUGCUCUUCCUUCUGGGUUAUUCAAGCCAAAUAUCUGGGUUUCCCCCUCUCCUCAUUCCCUAGCAAACCCCAAUUAUCUUCCAAGAUAGGAGUGGAAUUCUCGGGUGCCAA", "RBNS enrichment (R)": 0.398}
{"Oligonucleotide": "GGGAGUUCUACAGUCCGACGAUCAGAGGUACCGACUUGUUCCCUAUGGAAAUCAUUCCUAUCUGGAGUCUCUGACAGACAAAUCUAAGGAGUUGCCGUUAUACUGUUCUGGGGGUUUGCGGUUUUUCUGGGACUGGAAUUCUCGGGUGCCAA", "RBNS enrichment (R)": 0.408}
{"Oligonucleotide": "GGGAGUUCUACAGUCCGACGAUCCCCAUUCUUGGCCCUGGUCACUAGGGUCCUGGCUAUUCUAGAACUCAGUAAAAUGUAUGUCUAAUGCAACAUUGGCCCUUGUGUAGUACAACUAUUAGCCGUCACAGCUAUGGAAUUCUCGGGUGCCAA", "RBNS enrichment (R)": 0.388}
{"Oligonucleotide": "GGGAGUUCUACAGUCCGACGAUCACAUGAGCACAGGUGCUUCAUGACAAACAUUACUAGCAUGUUCAACUGCACCAUGUUCUGGCACUGUAUUUUGAAUGACAUUAAUUUAUUAAAUAAAUUGUAUAUAUUCAUGGAAUUCUCGGGUGCCAA", "RBNS enrichment (R)": 0.709}
{"data": "Other studies, line by line"}
{"Substance": "PhoQ, residues 284 288 289 292 302 303 SLSVQF", "target": "PhoP, residues 12 14 15 18 19 NYFRM (Escherichia coli, UniProt P23836)", "test": "Sort-seq, refers to: YFP reporter", "test system": "E. coli", "setting": "PhoQ-PhoP variant library, with: 10 µM Mg2+", "how to read": "baseline: high Mg2+ state, higher = stronger signaling", "endpoint": "fold induction", "result": 11.1}
{"note": "Some of these lines once more (sample 2):"}
{"Oligonucleotide": "ATAACCAC", "E-score": 0.158}
{"Oligonucleotide": "GATCATGA", "E-score": 0.111}
{"Oligonucleotide": "ACCGAGGA", "E-score": -0.182}
